Measured values collected from several papers.
A part holds a random share of what one study measured. Several values in a cell are separate wells, animals, samples, runs or records.

Series 1
Target: UDP-N-acetylglucosamine--peptide N-acetylglucosaminyltransferase 110 kDa subunit (OGT, Homo sapiens, UniProt O15294)
Sequence of UniProt O15294 (whole entry, looked up): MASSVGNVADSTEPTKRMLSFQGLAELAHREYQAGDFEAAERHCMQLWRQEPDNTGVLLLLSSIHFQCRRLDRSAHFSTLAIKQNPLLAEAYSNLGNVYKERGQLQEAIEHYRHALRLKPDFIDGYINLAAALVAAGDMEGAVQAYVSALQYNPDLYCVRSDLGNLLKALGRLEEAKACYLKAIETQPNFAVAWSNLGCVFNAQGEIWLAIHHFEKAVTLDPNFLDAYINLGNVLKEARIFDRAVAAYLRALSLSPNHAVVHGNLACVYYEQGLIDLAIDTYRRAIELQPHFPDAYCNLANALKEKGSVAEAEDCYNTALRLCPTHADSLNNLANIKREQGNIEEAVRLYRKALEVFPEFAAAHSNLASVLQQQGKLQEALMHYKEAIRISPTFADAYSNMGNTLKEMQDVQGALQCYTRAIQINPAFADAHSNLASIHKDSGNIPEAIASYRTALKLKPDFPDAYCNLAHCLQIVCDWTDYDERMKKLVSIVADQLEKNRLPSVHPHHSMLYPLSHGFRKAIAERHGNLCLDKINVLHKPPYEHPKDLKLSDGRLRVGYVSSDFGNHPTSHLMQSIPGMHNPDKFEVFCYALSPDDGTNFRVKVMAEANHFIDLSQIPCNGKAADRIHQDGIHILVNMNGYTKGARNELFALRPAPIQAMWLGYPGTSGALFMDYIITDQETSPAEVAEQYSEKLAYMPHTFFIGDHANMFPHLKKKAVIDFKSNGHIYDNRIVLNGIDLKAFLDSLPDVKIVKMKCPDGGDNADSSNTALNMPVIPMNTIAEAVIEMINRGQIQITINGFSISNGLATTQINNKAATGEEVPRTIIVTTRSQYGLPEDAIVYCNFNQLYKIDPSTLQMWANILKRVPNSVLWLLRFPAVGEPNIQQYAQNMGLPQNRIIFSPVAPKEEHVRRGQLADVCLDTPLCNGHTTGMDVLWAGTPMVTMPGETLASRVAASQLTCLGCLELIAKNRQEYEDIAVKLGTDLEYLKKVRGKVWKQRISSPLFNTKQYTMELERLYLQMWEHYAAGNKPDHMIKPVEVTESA
Observed: binding
Method: phage display NGS
Molecule type: peptide
Setting: panning round 2
Relative to: input library
Endpoint: minimum log2 enrichment ratio
QAQFMPVYQMQSMAR: 2.07
QYVPYYQIEVNSQPY: 2.39
MQEYSPGYQIQFSKP: 2.94
HQEHKHEGHWAIFD: 2.25
QDLMPYYPIQYYQER: 4
DSGMHWMHRHMHGWE: 3.18
HTPWRPQRNEHHRYV: 2.63
WVLVPPFYQIVPSNR: 6.95

Series 2
Target: Eukaryotic initiation factor 4A-III (Homo sapiens, UniProt P38919)
Sequence of UniProt P38919 (whole entry, looked up): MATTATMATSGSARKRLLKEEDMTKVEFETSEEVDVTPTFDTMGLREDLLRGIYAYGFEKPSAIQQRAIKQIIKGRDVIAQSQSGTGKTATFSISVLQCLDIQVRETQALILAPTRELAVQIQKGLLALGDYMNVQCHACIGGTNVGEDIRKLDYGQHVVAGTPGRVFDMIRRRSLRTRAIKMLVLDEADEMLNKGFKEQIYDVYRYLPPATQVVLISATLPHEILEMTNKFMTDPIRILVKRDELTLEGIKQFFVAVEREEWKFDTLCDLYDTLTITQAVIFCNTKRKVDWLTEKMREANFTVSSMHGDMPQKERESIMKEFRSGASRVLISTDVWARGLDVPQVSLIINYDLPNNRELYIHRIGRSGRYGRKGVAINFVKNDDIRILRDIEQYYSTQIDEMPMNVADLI
Observed: RNA clamping
Method: fluorescence polarization
Tested at: concentration not given
With: FAM-labelled poly r(AG)8 RNA
Endpoint: fluorescence polarization change
COc1ccc([C@@]23Oc4cc(OC)cc(OC)c4[C@]2(O)c2nc(Cc4ccccc4)[nH]c(=O)c2[C@H]3c2ccccc2)cc1: 17.6 mP
COc1ccc([C@@]23Oc4cc(OC)cc(OC)c4[C@]2(O)[C@H](O)[C@H](C(=O)N(C)OC)[C@H]3c2ccccc2)cc1: 1.9 mP and 68 mP
CCCCC1=N[C@@]2(O)[C@H](C(=O)OC)[C@@H](c3ccccc3)[C@]3(c4ccc(OC)cc4)Oc4cc(OC)cc(OC)c4[C@]23N1: 38.8 mP
COc1ccc([C@@]23Oc4cc(OC)cc(OC)c4[C@]2(O)c2nc(-c4cccnc4)[nH]c(=O)c2[C@H]3c2ccccc2)cc1: 29.6 mP

Series 3
Target: Muscarinic acetylcholine receptor M1 (CHRM1, Homo sapiens, UniProt P11229)
Sequence of UniProt P11229 (whole entry, looked up): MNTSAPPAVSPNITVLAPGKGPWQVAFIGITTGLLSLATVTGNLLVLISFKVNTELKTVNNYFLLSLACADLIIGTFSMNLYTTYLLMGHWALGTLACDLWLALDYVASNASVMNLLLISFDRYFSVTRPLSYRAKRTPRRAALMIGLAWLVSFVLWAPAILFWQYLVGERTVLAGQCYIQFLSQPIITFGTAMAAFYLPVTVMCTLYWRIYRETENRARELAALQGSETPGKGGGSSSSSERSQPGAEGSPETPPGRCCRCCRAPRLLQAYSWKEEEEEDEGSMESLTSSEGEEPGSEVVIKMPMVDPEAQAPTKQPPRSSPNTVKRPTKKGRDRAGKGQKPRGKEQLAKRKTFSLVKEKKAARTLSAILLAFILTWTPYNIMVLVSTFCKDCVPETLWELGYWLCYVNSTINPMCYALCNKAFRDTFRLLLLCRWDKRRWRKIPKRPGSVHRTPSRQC
Observed: binding
Method: radioligand binding
Tested at: 10 µM
Endpoint: inhibition
COc1cc(-c2cn(C3CCc4ccccc4N(CC(F)(F)F)C3=O)nn2)ccc1-n1ccc(C)n1 (centres unmarked): -12.6%
CC(=O)Nc1nc(CN2CCC[C@H](Cc3cc(C)nc(C)c3)C2)cs1: 25.4%
O=C(NC[C@@H]1[C@H]2CN(C(=O)OCc3cc(C(F)(F)F)cc(C(F)(F)F)c3)C[C@@H]12)c1ccc2[nH]nnc2c1: -2.87%
O=C1c2ccc(Nc3ccc(F)cc3F)cc2CCc2ccc(OC[C@H](O)CO)cc21: 45.5%
COCCc1ccc(-c2c(C)nc3c(N4CCOCC4)ccnn23)cn1: 2.83%
CC1=C(C#N)[C@@H](c2ccc3[nH]nc(C)c3c2)C(C#N)=C(c2ccc(Cl)cc2)N1: 8.17%
Cc1cc(-n2nc(Cc3cc(F)cc(C(F)(F)F)c3)nc2C)ccc1C(N)=O: -7.57%
CNC(=O)c1ccc(Nc2ncc(C(F)(F)F)c(NCc3nccnc3N(C)S(C)(=O)=O)n2)cc1: 19.3%
COc1cccc(CNC(=O)c2nc3scc(COCc4ccc(C(=O)O)cc4)c3c(=O)[nH]2)c1: 53.4%
CC(C)(O)c1cncc(-c2nc3ccc(F)cc3n2C2CC2)c1: -4.49%
CN1C(=O)[C@@H](N2CCc3cn(Cc4ccccc4)nc3C2=O)COc2ccccc21: 0.6%
CC(=O)c1c(NS(C)(=O)=O)c2cc(-c3ccc(Cl)cc3)c(-c3ccc(Cl)cc3Cl)nc2n(C)c1=O: 3.28%
COCc1nc2cnc3cc(-c4c(C)noc4C)c(OC[C@H]4CCNC4)cc3c2n1[C@H](C)c1ccccc1: -1.37%
Cc1nc(Cc2cccc(C(F)(F)F)c2)sc1-c1ccc(C(N)=O)nc1: 10%
CN(C)C(=O)Cn1cc(-c2nc([C@@](C)(c3ccc(-c4cnc(N)nc4)cc3)C3CC3)no2)cn1: -4.93%
O[C@]1(C(F)(F)F)CCCC[C@H]1Nc1ccc(F)cc1: 8.3%

Further values, each from its own experiment
ADRB1: Beta-1 adrenergic receptor (ADRB1, Homo sapiens, UniProt P08588)
Sequence of UniProt P08588 (whole entry, looked up): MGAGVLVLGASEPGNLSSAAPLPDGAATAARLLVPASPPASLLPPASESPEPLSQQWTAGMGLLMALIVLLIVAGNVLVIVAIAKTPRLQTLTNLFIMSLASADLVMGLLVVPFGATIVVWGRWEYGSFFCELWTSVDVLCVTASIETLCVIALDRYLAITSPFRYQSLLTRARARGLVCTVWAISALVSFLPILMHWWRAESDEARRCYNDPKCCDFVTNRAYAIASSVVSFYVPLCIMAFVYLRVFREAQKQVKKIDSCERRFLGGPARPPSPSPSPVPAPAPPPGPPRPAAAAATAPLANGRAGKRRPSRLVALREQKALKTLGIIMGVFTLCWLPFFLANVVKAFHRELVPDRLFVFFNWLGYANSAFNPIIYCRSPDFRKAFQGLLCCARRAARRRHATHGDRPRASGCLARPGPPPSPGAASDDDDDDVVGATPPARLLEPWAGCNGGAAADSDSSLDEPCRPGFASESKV
CC1=C(C)C(=O)O[C@H]([C@](C)(O)C2(O)CC[C@@]3(O)[C@@H]4CC=C5CC=CC(=O)[C@]5(C)C4CC[C@]23C)C1 (some centres unmarked)  EC50 (ADRB1; agonist): 35.5 µM
CC(=O)Nc1cccc(C2(C)C(=O)N(C)C(=O)N(C)C2=O)c1  remaining compound (mouse, microsomes or S9; 2 µM, 0.5 h): 81.5%
c1cc(N2CCNCC2)c2cc[nH]c2c1  EC50 (ADRB1; agonist): ≥ 100 µM
COc1cc(/C=C2\C(=O)N=C(O)N=C2O)ccc1OCc1ccc(Cl)cc1  remaining compound (mouse, microsomes or S9; 2 µM, 0.5 h): 56.5%

A few entries again (series 3):
Cc1nc(Cc2cccc(C(F)(F)F)c2)sc1-c1ccc(C(N)=O)nc1: 10%
CC(=O)c1c(NS(C)(=O)=O)c2cc(-c3ccc(Cl)cc3)c(-c3ccc(Cl)cc3Cl)nc2n(C)c1=O: 3.28%
Cc1cc(-n2nc(Cc3cc(F)cc(C(F)(F)F)c3)nc2C)ccc1C(N)=O: -7.57%
COc1cc(-c2cn(C3CCc4ccccc4N(CC(F)(F)F)C3=O)nn2)ccc1-n1ccc(C)n1 (centres unmarked): -12.6%
